Measured values collected from several papers.
Protocols differ between the studies behind these lines. Values joined by “and” are separate records of one study, mostly repeats; a detail may differ. ± gives the spread as reported. Values after ≈ are worked out from the molar mass of the structure shown.

`NC[C@H]1O[C@H](O[C@H]2[C@H](O)[C@@H](O[C@H]3O[C@H](CO)[C@@H](O)[C@H](N)[C@H]3O)[C@H](N)C[C@@H]2N)[C@H](O)[C@@H](O)[C@@H]1O` gave a survival of 7.11% and 7.8% and 5.48% and 5.64% and 5.32% and 7.7% (Acinetobacter baumannii; colony counting; 19606, biofilm; 50 µg/mL, 12 h, together with: HNP1 8 µM).
For `C[C@@H]1O[C@@H](O[C@H]2C[C@@H](O)[C@]3(CO)[C@H]4[C@H](O)C[C@]5(C)[C@@H](C6=CC(=O)OC6)CC[C@]5(O)[C@@H]4CC[C@]3(O)C2)[C@H](O)[C@H](O)[C@H]1O`, “hatchlings per female” read 134 (Oncopeltus fasciatus; diet, concentration not given).
For `COC(=O)/C(C#N)=C1\Nc2ccccc2O1`, the IC50 was 1780 nM (Tetrahymena pyriformis and Klebsiella pneumoniae; virulence in co-culture).
`COC1=CC(c2ccc[nH]2)=N/C1=C\c1[nH]c(Cc2ccccc2)cc1Cc1ccccc1.Cl` gave a parasitaemia reduction of 100% (Plasmodium yoelii; CF1 mice; oral, 25 mg/kg daily for 4 days, day 5; reference: vehicle).
With `CCOC(=O)C1(Cc2ccccc2)CN(c2ccccc2)Cc2nnn(CCc3ccc(OC)cc3)c21` (stereo not shown) the EC50 was > 100000 nM (human adenovirus 2; viral replication; HEL).
With `N#Cc1ccc2c(ccc3oc([N+](=O)[O-])cc32)c1` the MIC90 was > 32 µg/mL (Mycolicibacterium aurum; REMA; ATCC 23366).
`Cn1c(=O)ccc2ccc(F)c(CCNC[C@H]3CN(c4cnc5c(n4)NC(=O)CO5)C(=O)O3)c21` has an MIC90 of 0.25 µg/mL (≈ 0.534 µM) (Klebsiella aerogenes).
`CS(=O)(=O)CCCn1c(Cn2c(=O)n(CC(F)(F)F)c3ccncc32)cc2cc(Cl)ccc21` — result for “LS mean viral load change”: -3.4 log10 copies/mL (respiratory syncytial virus; RT-qPCR; hospitalized infants 1-24 months, nasal swab; oral, 9, 6 or 5 mg/kg daily, day 4, high dose by age cohort; reference: baseline).
`COc1cccc(C(=O)NN(C(=O)c2cc(C)cc(C)c2)C(C)(C)C)c1C` — result for egg number: “decreased” (Anopheles gambiae s.l.; resistant; tarsal contact, 367 mg/m^2, together with: RME 100 mg/m^2; reference: control).
`CC1(C)SC2C(NC(=O)C(NC(=O)C3=C(O)CN(c4ccccc4)C3=O)c3ccccc3)C(=O)N2C1C(=O)O` (stereo not shown) has an MIC of > 200 µg/mL (Escherichia coli; broth microdilution; isolate IU 356 A, KPC-3, VIM-1, TEM; no clavulanic acid).
`[O-][N+]1=C(c2ccc(Cl)cc2)C2=NCCN2c2ccccc21` gave an MIC90 of ≤ 0.06 µg/mL (Prevotella spp.; bacterial growth).
For `CNC(C)C1CCC(N)C(OC2C(N)CC(N)C(OC3OCC(C)(O)C(NC)C3O)C2O)O1` (stereo not shown), the survival was 0% and 1.04% (Acinetobacter baumannii; 19606, biofilm; 50 µg/mL, without HNP1).
For `CCCCCCCCCCCc1c([N+](=O)[O-])oc2ccc3ccccc3c12`, the MIC90 was > 32 µg/mL (Mycolicibacterium aurum; REMA; ATCC 23366).
`CC[C@H](C)[C@H](NC(=O)[C@H](C)NC(=O)[C@H](CCCCN)NC(=O)[C@H](CC(C)C)NC(=O)[C@H](C)NC(=O)[C@@H](NC(=O)[C@H](Cc1c[nH]cn1)NC(=O)[C@H](CC(C)C)NC(=O)[C@@H](NC(=O)[C@@H](NC(=O)[C@H](CCCCN)NC(=O)[C@H](C)NC(=O)[C@H](C)NC(=O)[C@H](CO)NC(=O)[C@H](CCCCN)NC(=O)[C@H](Cc1ccccc1)NC(=O)[C@@H](NC(=O)[C@H](CCCCN)NC(=O)[C@H](CC(C)C)NC(=O)[C@H](Cc1ccccc1)NC(=O)[C@H](CO)NC(=O)[C@H](CCCCN)NC(=O)[C@H](Cc1c[nH]c2ccccc12)NC(=O)[C@H](CCCCN)NC(C)=O)[C@@H](C)O)[C@@H](C)O)C(C)C)[C@@H](C)O)C(=O)N[C@@H](CO)C(=O)N[C@@H](CO)C(N)=O` gave an MBC50 of 32 µg/mL (≈ 10.9 µM) (Streptococcus pyogenes; erythromycin-sensitive; 21 strains).
With `COC1=CC(c2ccc[nH]2)=N/C1=C\c1cc(Cc2ccc(C(F)(F)F)cc2)c(C)[nH]1.Cl` the parasitaemia reduction was 100% (Plasmodium yoelii; CF1 mice; oral, 10 mg/kg daily for 4 days, day 5; reference: vehicle).
For `CC1(C)SC2C(NC(=O)C(NC(=O)C3=C(O)C(Cc4ccco4)NC3=O)c3ccccc3)C(=O)N2C1C(=O)O` (stereo not shown), the MIC was 100 µg/mL (Escherichia coli; broth microdilution; ATCC 35218, low-level TEM-1; together with: clavulanic acid 6 µg/mL).
`O=C(O)c1cccc(C(=O)O)n1` gave a meropenem MIC of 0.5 µg/mL (Klebsiella aerogenes; VIM-1 producer; 32 µg/mL, together with: meropenem).
`CCOC(=O)C1(Cc2ccccc2)CN(c2ccccc2)Cc2nnn(CCCCCO)c21` (stereo not shown) gave an EC50 of > 100000 nM (human adenovirus 2; viral replication; HEL).
With `COC1=CC(c2ccc[nH]2)=N/C1=C\c1cc(Cc2ccc(C#N)cc2)c(C)[nH]1.Cl` the parasitaemia reduction was 5.71% (Plasmodium yoelii; CF1 mice; oral, 10 mg/kg daily for 4 days, day 5; reference: vehicle).
The MIC90 of `COc1c([N+](=O)[O-])oc2ccc3ccccc3c12` is reported as > 32 µg/mL (Klebsiella aerogenes; REMA).
`CC(C)/N=C(\N)c1ccc(NC(=O)c2ccc(C(=O)Nc3ccc(/C(N)=N/C(C)C)cc3)cc2)cc1` gave an IC50 of 1390 nM (Tetrahymena pyriformis and Klebsiella pneumoniae; virulence in co-culture).
For `COC1=CC(c2ccc[nH]2)=N/C1=C\c1[nH]c(C)cc1Cc1ccccc1.Cl`, the parasitaemia reduction was 100% (Plasmodium yoelii; CF1 mice; oral, 25 mg/kg daily for 4 days, day 5; reference: vehicle).
The MIC90 of `Cc1c([N+](=O)[O-])oc2ccc3ccccc3c12` is reported as 1.1 µg/mL (≈ 4.84 µM) (Klebsiella aerogenes; REMA).
The combination index of `COC(=O)N[C@H](C(=O)N1CCC[C@H]1c1ncc(-c2ccc(-c3ccc(-c4cnc([C@@H]5CCCN5C(=O)[C@@H](NC(=O)OC)C(C)C)[nH]4)cc3)cc2)[nH]1)C(C)C` is reported as 0.63 (Hepatitis C virus; replicon cells; 50% effect level, together with: NS5B inhibitor, ratio 2.5:1).
For `C[C@@H](O)[C@H]1C(=O)N2C(C(=O)O)=C(S[C@@H]3CN[C@H](C(=O)N(C)C)C3)[C@H](C)[C@H]12`, “lung bacterial burden reduction” read -1.32 log10 CFU/g (Acinetobacter baumannii; ATCC 19606, rat lung infection, lung; 30 mg/kg; reference: early control).
`Cc1c2c(nn1C)CSCc1cc(n(C)n1)CSc1cc(c3ccccc3c1)OCCCc1c(C(=O)O)n(C)c3c-2c(Cl)ccc13` gave a downregulation of 5.24 fold (Staphylococcus aureus; label-free quantitative proteomics, measured: Hld protein; SA113; 3.125 µM; reference: DMSO).
`N=C(N)c1ccc(OCCC(CCOc2ccc(C(=N)N)cc2)c2ccccc2)cc1` (stereo not shown) has an FICI of ≤ 0.063 (Escherichia coli; checkerboard; BW25113 mcr-1 plasmid; unit not given, together with: rifampicin; lower = stronger synergy).
`Cc1ccnc2nc(C(=O)Nc3nc4ccc(Oc5ccccc5)cc4s3)nn12` has an IC50 of 340 nM (Tetrahymena pyriformis and Klebsiella pneumoniae; virulence in co-culture).
With `COc1cc2cc(C(=O)Nc3ccccc3)c(N)nc2cc1OC` the inhibition was 20% (Plasmodium yoelii; oxygen consumption; 17XL; 2 µM).
The EC50 of `COc1ccnc(C(=O)N[C@H]2COC(=O)[C@H](Cc3ccccc3)[C@@H](OC(=O)C(C)C)[C@H](C)OC2=O)c1OCOC(=O)C(C)C` is reported as 0.00093 µg/mL (Daphnia magna; immobilisation, semi-static water exposure; 48 h).
For `COc1ccc(-c2csc(NC(=O)c3ccc(C(=O)Nc4nc(-c5ccc(OC)c(OC)c5)cs4)s3)n2)cc1OC`, the IC50 was 0.94 nM (Tetrahymena pyriformis and Klebsiella pneumoniae; virulence in co-culture).
For `CCN(CC)CCCC(C)Nc1ccnc2cc(Cl)ccc12` (stereo not shown), the inhibition was 18.5 ± 2.8% (West Nile virus; replicon reporter; Vero replicon cells; 50 µM, 24 h).
With `COc1ccc(N2CCN(C(CNC(=O)C3CCCCC3)c3ccc4c(c3)OCO4)CC2)cc1` (stereo not shown) the inhibition was 23% (Plasmodium yoelii; oxygen consumption; 17XL; 2 µM).
`O=c1oc2cccnc2c(=O)n1Cc1ccc([N+](=O)[O-])o1` gave an IC50 of 7500 nM (Tetrahymena pyriformis and Klebsiella pneumoniae; virulence in co-culture).
`O=[N+]([O-])c1cc2c(ccc3c2ccc2cc([N+](=O)[O-])oc23)o1` gave an MIC90 of > 32 µg/mL (Klebsiella aerogenes; REMA).
With `O=C(O)c1cc(Br)c(O)c(Br)c1` the IC50 was 320 nM (Tetrahymena pyriformis and Klebsiella pneumoniae; virulence in co-culture).
`Nc1ncnc2c1ncn2[C@@H]1O[C@@H]2COP(=O)(O)O[C@H]3[C@@H](O)[C@H](n4cnc5c(=O)[nH]cnc54)O[C@@H]3COP(=O)(O)O[C@H]2[C@H]1O` gave a fold enrichment of 7.03 (West Nile virus; RNA sequencing, measured: collagen modifying enzymes, biosynthesis, R-HSA-1650814; HFF-1 cells; concentration not given, downregulated pathway; reference: WNV-infected untreated cells).

Some of these lines once more:
`CC(C)/N=C(\N)c1ccc(NC(=O)c2ccc(C(=O)Nc3ccc(/C(N)=N/C(C)C)cc3)cc2)cc1` gave an IC50 of 1390 nM (Tetrahymena pyriformis and Klebsiella pneumoniae; virulence in co-culture).
For `COC1=CC(c2ccc[nH]2)=N/C1=C\c1[nH]c(C)cc1Cc1ccccc1.Cl`, the parasitaemia reduction was 100% (Plasmodium yoelii; CF1 mice; oral, 25 mg/kg daily for 4 days, day 5; reference: vehicle).
The MIC90 of `Cc1c([N+](=O)[O-])oc2ccc3ccccc3c12` is reported as 1.1 µg/mL (≈ 4.84 µM) (Klebsiella aerogenes; REMA).
The combination index of `COC(=O)N[C@H](C(=O)N1CCC[C@H]1c1ncc(-c2ccc(-c3ccc(-c4cnc([C@@H]5CCCN5C(=O)[C@@H](NC(=O)OC)C(C)C)[nH]4)cc3)cc2)[nH]1)C(C)C` is reported as 0.63 (Hepatitis C virus; replicon cells; 50% effect level, together with: NS5B inhibitor, ratio 2.5:1).
For `C[C@@H](O)[C@H]1C(=O)N2C(C(=O)O)=C(S[C@@H]3CN[C@H](C(=O)N(C)C)C3)[C@H](C)[C@H]12`, “lung bacterial burden reduction” read -1.32 log10 CFU/g (Acinetobacter baumannii; ATCC 19606, rat lung infection, lung; 30 mg/kg; reference: early control).
